Published values collected from several papers.
Protocols differ between the studies behind these lines. Several values in a cell are separate wells, animals, samples, runs or records. ± gives the spread as reported.
Chain of UniProt O76090 (whole entry, unmodified, looked up): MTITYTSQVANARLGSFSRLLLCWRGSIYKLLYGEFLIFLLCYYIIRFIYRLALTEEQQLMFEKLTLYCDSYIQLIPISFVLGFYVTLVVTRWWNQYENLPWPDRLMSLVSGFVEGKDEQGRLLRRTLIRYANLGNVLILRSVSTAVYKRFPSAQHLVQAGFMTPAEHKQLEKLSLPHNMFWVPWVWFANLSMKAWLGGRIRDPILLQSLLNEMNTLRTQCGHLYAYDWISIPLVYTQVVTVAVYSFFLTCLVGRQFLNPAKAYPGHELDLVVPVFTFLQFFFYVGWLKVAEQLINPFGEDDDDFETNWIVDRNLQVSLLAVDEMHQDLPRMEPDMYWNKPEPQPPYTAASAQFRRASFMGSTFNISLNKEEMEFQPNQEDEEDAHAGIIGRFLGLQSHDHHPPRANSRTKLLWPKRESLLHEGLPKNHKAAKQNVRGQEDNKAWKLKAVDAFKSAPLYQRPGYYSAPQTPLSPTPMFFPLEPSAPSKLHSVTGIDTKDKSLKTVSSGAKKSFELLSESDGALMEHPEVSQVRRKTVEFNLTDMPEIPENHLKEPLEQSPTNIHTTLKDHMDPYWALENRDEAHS
Chain of UniProt P18669 (whole entry, looked up): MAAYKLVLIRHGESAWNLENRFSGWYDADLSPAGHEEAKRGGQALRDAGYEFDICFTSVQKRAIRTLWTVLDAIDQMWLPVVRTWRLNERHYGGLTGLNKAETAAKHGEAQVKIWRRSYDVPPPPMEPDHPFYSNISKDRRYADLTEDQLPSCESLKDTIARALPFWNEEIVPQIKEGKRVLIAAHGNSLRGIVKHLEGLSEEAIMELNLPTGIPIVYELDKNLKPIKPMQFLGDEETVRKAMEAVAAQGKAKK
Chain of UniProt P05164 (whole entry, looked up): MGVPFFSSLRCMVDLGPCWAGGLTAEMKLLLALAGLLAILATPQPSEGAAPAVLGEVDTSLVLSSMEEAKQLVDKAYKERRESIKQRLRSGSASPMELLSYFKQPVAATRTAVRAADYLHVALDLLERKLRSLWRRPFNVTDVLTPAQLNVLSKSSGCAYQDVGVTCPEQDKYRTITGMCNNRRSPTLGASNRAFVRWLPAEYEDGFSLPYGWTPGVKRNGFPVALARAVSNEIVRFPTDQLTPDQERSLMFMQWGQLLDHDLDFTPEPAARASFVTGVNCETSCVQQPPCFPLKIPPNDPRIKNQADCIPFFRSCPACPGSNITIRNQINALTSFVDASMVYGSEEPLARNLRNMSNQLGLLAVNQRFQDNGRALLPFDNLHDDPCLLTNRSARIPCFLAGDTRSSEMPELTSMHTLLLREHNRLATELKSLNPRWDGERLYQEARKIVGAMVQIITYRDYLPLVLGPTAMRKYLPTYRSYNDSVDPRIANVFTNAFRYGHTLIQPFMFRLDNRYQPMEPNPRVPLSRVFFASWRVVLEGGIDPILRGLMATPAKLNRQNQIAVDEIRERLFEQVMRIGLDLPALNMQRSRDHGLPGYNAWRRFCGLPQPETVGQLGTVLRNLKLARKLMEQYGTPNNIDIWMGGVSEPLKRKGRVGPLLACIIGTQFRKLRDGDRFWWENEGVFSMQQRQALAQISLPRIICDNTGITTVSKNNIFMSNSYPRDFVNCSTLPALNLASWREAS
Chain of UniProt P11388 (whole entry, looked up): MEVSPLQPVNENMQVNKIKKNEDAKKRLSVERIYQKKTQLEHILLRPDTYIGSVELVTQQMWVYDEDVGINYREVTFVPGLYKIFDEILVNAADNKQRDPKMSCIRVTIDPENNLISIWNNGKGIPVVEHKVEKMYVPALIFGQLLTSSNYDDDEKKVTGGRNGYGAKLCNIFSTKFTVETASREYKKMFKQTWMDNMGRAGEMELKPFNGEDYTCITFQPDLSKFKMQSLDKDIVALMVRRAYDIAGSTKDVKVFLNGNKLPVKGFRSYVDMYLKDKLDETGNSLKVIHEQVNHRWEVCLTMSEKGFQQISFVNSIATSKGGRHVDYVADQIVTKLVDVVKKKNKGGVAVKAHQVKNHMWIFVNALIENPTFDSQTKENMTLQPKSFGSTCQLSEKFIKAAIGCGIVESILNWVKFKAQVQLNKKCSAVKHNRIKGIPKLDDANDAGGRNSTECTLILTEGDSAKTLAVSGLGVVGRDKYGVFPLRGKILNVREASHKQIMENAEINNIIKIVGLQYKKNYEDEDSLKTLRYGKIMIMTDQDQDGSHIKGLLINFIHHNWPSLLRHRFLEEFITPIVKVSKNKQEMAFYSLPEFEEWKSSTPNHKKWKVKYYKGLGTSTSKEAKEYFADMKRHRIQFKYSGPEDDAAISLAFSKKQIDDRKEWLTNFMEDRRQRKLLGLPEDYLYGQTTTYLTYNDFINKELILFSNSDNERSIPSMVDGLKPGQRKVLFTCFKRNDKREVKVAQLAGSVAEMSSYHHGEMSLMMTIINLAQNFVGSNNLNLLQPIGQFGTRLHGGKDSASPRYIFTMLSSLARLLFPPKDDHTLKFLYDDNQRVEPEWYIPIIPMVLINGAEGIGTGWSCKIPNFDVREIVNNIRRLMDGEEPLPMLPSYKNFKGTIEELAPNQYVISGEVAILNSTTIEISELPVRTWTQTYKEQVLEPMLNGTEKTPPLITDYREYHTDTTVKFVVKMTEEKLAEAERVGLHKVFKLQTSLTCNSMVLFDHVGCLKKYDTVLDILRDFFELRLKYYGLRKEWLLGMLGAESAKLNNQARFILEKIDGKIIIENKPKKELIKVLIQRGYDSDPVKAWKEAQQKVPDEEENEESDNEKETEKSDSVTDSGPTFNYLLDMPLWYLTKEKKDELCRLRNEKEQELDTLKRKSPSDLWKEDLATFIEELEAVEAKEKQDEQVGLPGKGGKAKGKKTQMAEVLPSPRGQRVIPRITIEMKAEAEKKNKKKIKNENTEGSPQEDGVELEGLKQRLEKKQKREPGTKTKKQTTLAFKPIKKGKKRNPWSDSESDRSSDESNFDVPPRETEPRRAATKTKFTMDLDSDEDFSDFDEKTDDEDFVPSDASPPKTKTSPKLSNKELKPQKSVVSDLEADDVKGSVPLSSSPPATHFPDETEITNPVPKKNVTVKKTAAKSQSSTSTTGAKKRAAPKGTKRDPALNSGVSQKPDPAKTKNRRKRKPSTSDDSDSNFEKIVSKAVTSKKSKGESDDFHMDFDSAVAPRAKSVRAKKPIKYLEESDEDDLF
Chain of UniProt P00519 (whole entry, unmodified, looked up): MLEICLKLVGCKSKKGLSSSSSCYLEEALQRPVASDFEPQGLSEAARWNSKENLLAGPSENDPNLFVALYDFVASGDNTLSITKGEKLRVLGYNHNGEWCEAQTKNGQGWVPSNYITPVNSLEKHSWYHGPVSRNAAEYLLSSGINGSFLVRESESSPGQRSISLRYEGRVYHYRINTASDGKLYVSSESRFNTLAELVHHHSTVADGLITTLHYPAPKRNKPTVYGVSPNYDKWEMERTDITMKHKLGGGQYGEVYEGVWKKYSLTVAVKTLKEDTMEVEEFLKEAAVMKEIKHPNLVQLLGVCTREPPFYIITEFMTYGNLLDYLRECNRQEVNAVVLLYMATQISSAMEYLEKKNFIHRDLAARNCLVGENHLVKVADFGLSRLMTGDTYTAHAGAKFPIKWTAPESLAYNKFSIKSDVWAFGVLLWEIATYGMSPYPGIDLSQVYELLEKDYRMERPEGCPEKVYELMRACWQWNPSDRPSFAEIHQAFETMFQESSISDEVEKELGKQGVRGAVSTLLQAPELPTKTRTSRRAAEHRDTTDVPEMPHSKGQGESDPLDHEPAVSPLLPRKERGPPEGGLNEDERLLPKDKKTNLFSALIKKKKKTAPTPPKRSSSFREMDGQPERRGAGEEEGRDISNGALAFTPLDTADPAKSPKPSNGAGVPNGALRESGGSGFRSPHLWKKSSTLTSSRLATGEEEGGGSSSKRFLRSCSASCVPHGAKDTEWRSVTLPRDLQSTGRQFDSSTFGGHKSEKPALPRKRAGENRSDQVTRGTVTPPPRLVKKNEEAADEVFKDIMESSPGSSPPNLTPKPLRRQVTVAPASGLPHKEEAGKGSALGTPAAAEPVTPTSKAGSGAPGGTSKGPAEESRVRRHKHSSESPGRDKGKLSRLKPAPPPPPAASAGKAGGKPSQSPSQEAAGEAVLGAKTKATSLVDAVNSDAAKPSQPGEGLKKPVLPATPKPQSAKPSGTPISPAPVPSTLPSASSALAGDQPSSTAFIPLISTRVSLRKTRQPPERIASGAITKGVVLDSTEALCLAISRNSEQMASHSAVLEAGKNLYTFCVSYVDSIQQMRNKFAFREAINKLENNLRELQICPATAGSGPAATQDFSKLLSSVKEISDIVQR
Chain of UniProt P51575 (whole entry, unmodified, looked up): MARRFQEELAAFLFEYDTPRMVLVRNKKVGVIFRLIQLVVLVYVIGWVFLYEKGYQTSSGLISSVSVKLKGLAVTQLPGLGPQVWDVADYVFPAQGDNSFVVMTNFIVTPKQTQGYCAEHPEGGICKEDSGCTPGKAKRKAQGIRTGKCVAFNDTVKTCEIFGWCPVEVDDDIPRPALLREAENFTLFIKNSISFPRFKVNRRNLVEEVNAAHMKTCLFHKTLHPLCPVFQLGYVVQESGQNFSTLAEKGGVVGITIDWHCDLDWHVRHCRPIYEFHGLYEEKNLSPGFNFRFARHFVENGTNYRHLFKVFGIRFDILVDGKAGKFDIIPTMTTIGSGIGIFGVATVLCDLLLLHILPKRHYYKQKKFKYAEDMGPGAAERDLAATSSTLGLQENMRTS
Chain of UniProt P35346 (whole entry, looked up): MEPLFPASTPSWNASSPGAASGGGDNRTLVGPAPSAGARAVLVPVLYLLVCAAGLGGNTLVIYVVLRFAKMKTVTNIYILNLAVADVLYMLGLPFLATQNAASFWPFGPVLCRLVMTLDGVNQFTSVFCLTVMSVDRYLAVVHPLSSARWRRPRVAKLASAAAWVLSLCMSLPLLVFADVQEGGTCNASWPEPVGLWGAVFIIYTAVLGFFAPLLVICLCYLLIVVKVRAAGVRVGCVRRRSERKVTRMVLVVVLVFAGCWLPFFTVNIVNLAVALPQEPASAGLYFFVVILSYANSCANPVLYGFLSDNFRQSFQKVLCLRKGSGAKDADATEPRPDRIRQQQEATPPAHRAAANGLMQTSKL

CN1CCN(c2cc(-c3ccncc3)c(-c3ccc4ccccc4c3)nn2)CC1  activation (SSTR5 (Homo sapiens, UniProt P35346); agonist, FLIPR; 12.5 µM): 0.2%
c1cnn2ncc(-c3ccnc(N4CCC45COC5)n3)c2c1  remaining binding (ABL1 (Homo sapiens, UniProt P00519, F317I); KINOMEscan; 1 µM; baseline: control): 52% and 81%
Nc1ncnc2c1ncn2[C@@H]1O[C@H](COP(=O)(O)CP(=O)(O)OP(=O)(O)O)[C@@H](O)[C@H]1O  specific binding (P2X purinoceptor 1 (P2RX1, Homo sapiens, UniProt P51575, R139P); saturation binding; HEK293; 130 nM): 2490 CCPM and 1980 CCPM
Cn1c2c(Cl)c(Cl)ccc2c2cn[nH]c(=O)c21  delta Tm (Serine/threonine-protein kinase VRK3 (VRK3, Homo sapiens, UniProt Q8IV63); thermal stability, thermal shift; 10 µM; higher = stronger binding): -0.1 °C
NC/C(=C\F)COc1cccc(Cn2c(=S)[nH]c(=O)c3[nH]cnc32)c1  LDL lipid peroxidation (Myeloperoxidase (MPO, Homo sapiens, UniProt P05164); inhibitor, cholesteryl ester hydroperoxide; 0.1667 µM; baseline: control): 12.4% and 14.6% and 4.83% and 6.12%
O=C1C[C@@H](c2ccccc2)Oc2cc(O)cc(O)c21  fold change (Aryl hydrocarbon receptor (Danio rerio, UniProt Q9YGV3); reporter gene, agonist, luciferase reporter; ZF-4; 41.15 µM; baseline: vehicle control): 1.38
Nc1ncnc2c1ncn2[C@@H]1O[C@H](COP(=O)(O)OP(=O)(O)NP(=O)(O)O)[C@@H](O)[C@H]1O  ΔS (Cell cycle histidine kinase CckA, CA domain (Caulobacter vibrioides, UniProt Q9X688); ITC; with: c-di-GMP 100 µM): 11.6 cal/mol/K
COc1cc(Nc2ncc3c(n2)-c2ccc(Cl)cc2C(c2c(F)cccc2OC)=NC3)ccc1C(=O)O  remaining activity (CK1 epsilon (CSNK1E); inhibitor, biochemical kinase; 1 µM): 104%
O=c1nc(SCc2cc(F)cc(C(F)(F)F)c2)nc(SCc2ccc3nc(Cl)ccc3c2)[nH]1  ATP hydrolysis rate (TOP2A (Homo sapiens, UniProt P11388); ATPase activity; 7.8 µM, with: ATP 0.05 mM): 0.104 µM/min and 0.436 µM/min
CCCCNc1c(C(=O)OCC)c(C)nc2c1cnn2CC.Cl  agonist score (GABA-A receptor; alpha-1/beta-2/gamma-2 (Rattus norvegicus, UniProt P18508+P62813+P63138); membrane potential, agonist, QP-DHM fluorescence; HEK293 expressing GABAA; 10 µM; baseline: 10 µM GABA, direction not given): 0.58
O=C(COP(=O)(O)O)[C@@H](O)[C@H](O)[C@H](O)COP(=O)(O)O  enzyme activity (Phosphoglycerate mutase 1 (Homo sapiens, UniProt P18669); activator; 0.07812 mM, wild-type enzyme, unit not given; relative to no compound): 1.41 and 1.33
Nc1ccc(C(=O)O)cc1  current density (BEST1, with wild-type BEST1 (Homo sapiens, UniProt O76090, A243T); whole-cell patch clamp; HEK293 co-expressing WT and A243T mutant; concentration not given, membrane potential 80 mV): 28.8 pA/pF and 8.29 pA/pF and 31.7 pA/pF and 25 pA/pF and 26.8 pA/pF and 22.8 pA/pF and 5.84 pA/pF
CC[C@@H]1[C@H](F)C(=O)N[C@@H]1COc1nccc2cc(C(N)=O)c(OC)cc12  inhibition (MASTL (Homo sapiens, UniProt Q96GX5); ATP-site probe binding, ActivX profiling; THP-1 cell lysate; 0.04 mM, Lys1 site): 0.742%
CC[C@H](C)[C@H](NC(=O)[C@H](CCCNC(=N)N)NC(=O)[C@H](Cc1c[nH]cn1)NC(=O)[C@H](CCCNC(=N)N)NC(=O)[C@H](CC(=O)O)NC(=O)[C@H](CC(=O)O)NC(=O)[C@@H](NC(=O)[C@H](CC(=O)O)NC(=O)[C@@H]1CCCN1C(=O)[C@@H](N)CC(C)C)[C@@H](C)O)C(=O)N[C@@H](CCC(=O)O)C(=O)N[C@@H](CCC(=O)O)C(=O)N[C@@H](CCCCN)C(=O)N[C@@H](CCCNC(=N)N)C(=O)N[C@@H](CCCCN)C(=O)N[C@@H](CCCNC(=N)N)C(=O)N[C@H](C(=O)N[C@@H](Cc1ccc(O)cc1)C(=O)N[C@@H](CCC(=O)O)C(=O)N[C@H](C(=O)N[C@@H](Cc1ccccc1)C(=O)N[C@@H](CCCCN)C(=O)N[C@@H](CO)C(=O)N[C@H](C(=O)N[C@@H](CCSC)C(=O)N[C@@H](CCCCN)C(=O)N[C@@H](CCCCN)C(=O)N[C@@H](CO)C(=O)N1CCC[C@H]1C(=O)N[C@@H](Cc1ccccc1)C(=O)N[C@@H](CC(N)=O)C(=O)NCC(=O)N1CCC[C@H]1C(=O)O)[C@@H](C)CC)[C@@H](C)O)[C@@H](C)O  -TΔS (NF-kappa-B inhibitor alpha (Homo sapiens, UniProt P25963); binding, ITC; 293 K, 150 mM NaCl): -4.4 ± 0.4 kcal/mol
CCCCCCCCCCCCC/C=C/[C@@H](O)[C@H](CO)NC(=O)CCCCCCCCCCCCCCCCCCC  bound endogenous lipid (Protein SET (SET, Homo sapiens, UniProt Q01105); lipid binding, GFP pull-down LC-MS/MS; A549 overexpressing GFP-tagged protein; unit not given; baseline: vector-transfected cells): 8.7

Some of these lines once more:
O=C(COP(=O)(O)O)[C@@H](O)[C@H](O)[C@H](O)COP(=O)(O)O  enzyme activity (Phosphoglycerate mutase 1 (Homo sapiens, UniProt P18669); activator; 0.07812 mM, wild-type enzyme, unit not given; relative to no compound): 1.41 and 1.33
Nc1ccc(C(=O)O)cc1  current density (BEST1, with wild-type BEST1 (Homo sapiens, UniProt O76090, A243T); whole-cell patch clamp; HEK293 co-expressing WT and A243T mutant; concentration not given, membrane potential 80 mV): 28.8 pA/pF and 8.29 pA/pF and 31.7 pA/pF and 25 pA/pF and 26.8 pA/pF and 22.8 pA/pF and 5.84 pA/pF
